{"data": "Measured values gathered from unrelated publications", "note": "Numbered parts are unrelated; each lists some results of a single study. Substitutions count along the parent as printed."}
{"data": "Series 1", "target": "Fragile X messenger ribonucleoprotein 1, C-terminal low-complexity region (Fmr1, Mus musculus, UniProt P35922)", "technique": "RNA Bind-n-Seq", "form": "RNA", "medium": "in vitro", "concentration": "200 nM", "notes": "whole 134-nt RNA, ends assumed", "added": "150 mM KCl", "relative to": "input library", "reading": "higher = stronger binding", "all sequences stand within": "GGGAGUUCUACAGUCCGACGAUC … UGGAAUUCUCGGGUGUCAAGG"}
{"Strand": "UCCUGUGCUACACAUCGUAUGUACCGAAUCGGGAAAAAAAGGGAAAGGGUUUUUUUGGGAAAGUAUUAUGUUACGCCGUUCGGAUCUGCA", "log2 enrichment": -0.216}
{"Strand": "UCCUGUGCUACACAUCGUAUGUACCGAAUCGGGAAAGGGAAAAAAAGGGAAAAAAAGGGAAAGUAUUAUGUUACGCCGUUCGGAUCUGCA", "log2 enrichment": -0.206}
{"Strand": "UUGUGGGAGGAUUUUGAGAUACUUAUUCUUUAUUUGAGCCAGUCUUGCAAGGUUAACUUCUCACUGGGCCUAGUGUGGUGCCCAGGUUUU", "log2 enrichment": -1.47}
{"Strand": "GUCCUGUGCUACACAUCGUAUGUACCGAAUCGGGAAAAAGGAAAAAGGGAAAAAGGGGAAAGUAUUAUGUUACGCCGUUCGGAUCUGCAC", "log2 enrichment": -0.151}
{"Strand": "UCAAGUCCUGUGCUACACAUCGUAUGUACCGAAUCGGGAAAGGGGAAAGGAAAGGAAAGUAUUAUGUUACGCCGUUCGGAUCUGCACUUC", "log2 enrichment": -0.651}
{"Strand": "AGUCCUGUGCUACACAUCGUAUGUACCGAAUCGGGGCCCCGGGCCCCGGGCCCCGGGGAAAGUAUUAUGUUACGCCGUUCGGAUCUGCAC", "log2 enrichment": -0.628}
{"Strand": "UGUCCCUGACUCUCCAUUUCCCCAUCUGAGUGGAUUUGGACCUAAUAGGGCACUGGAGCUGGUUCGAAUCCUGACUGGACUACUUGGCAA", "log2 enrichment": 0.106}
{"Strand": "CAAGUCCUGUGCUACACAUCGUAUGUACCGAAUCGGGAAAAGGGAAAAGGAAAAGGAAAGUAUUAUGUUACGCCGUUCGGAUCUGCACUU", "log2 enrichment": -0.721}
{"Strand": "UGUUUAAUAAACGUGAAGAUGUCUCGCAGUCCUGAUGCGAAGGAAGACCCUGUGGAGUGCCCUCUUUGCAUGGAGCCCUUGGAGAUAGAU", "log2 enrichment": -1.14}
{"Strand": "CUCAAGUCCUGUGCUACACAUCGUAUGUACCGAAUCGGGAGGGGAGGGAGGGGAAAGUAUUAUGUUACGCCGUUCGGAUCUGCACUUCCA", "log2 enrichment": 1.23}
{"Strand": "CACAGACAACACGCCCCCACACAGACACAGAGGGAAGGGGUUGGGAUGGGGACAGGGUGCACAGCAGGGCGGGGUAGGACCCCAGCCCCU", "log2 enrichment": 1.55}
{"Strand": "UGGGAGGUGGAUUUUGUUUAUUUUUUUAGCUCAUUUCCAGGGGUGGGAAUUUUUUAUUAAUAUGUGUCAUGAAUAAAGUUGUUUUUGAAA", "log2 enrichment": 0.254}
{"Strand": "UCAAGUCCUGUGCUACACAUCGUAUGUACCGAAUCGGAAAGGGGAAAGGAAAGGGAAAGUAUUAUGUUACGCCGUUCGGAUCUGCACUUC", "log2 enrichment": -0.689}
{"Strand": "CUGUGCUACACAUCGUAUGUACCGAAUCGGAAAAAAAGGGGAAAAAAAGGGAAAAAAAGGGGAAAGUAUUAUGUUACGCCGUUCGGAUCU", "log2 enrichment": -0.369}
{"data": "Series 2", "target": "CCNE2, cyclin fold, Cln2 fusion (human)", "technique": "yeast growth competition, sequencing", "medium": "yeast", "notes": "strong parent motif", "relative to": "not given", "reading": "higher = stronger binding", "starting sequence": "WEE1 docking peptide (human); HKTFRKLRLFDTP"}
{"Change": "R8T", "normalised enrichment score": 0.593}
{"Change": "L7G", "normalised enrichment score": 1.19}
{"Change": "T3D", "normalised enrichment score": 0.113}
{"Change": "H1F", "normalised enrichment score": -0.286}
{"Change": "R5H", "normalised enrichment score": 1.53}
{"Change": "K2H", "normalised enrichment score": 1.1}
{"Change": "F4L", "normalised enrichment score": 0.674}
{"Change": "R5I", "normalised enrichment score": 0.642}
{"Change": "K6Q", "normalised enrichment score": 0.7}
{"Change": "K2D", "normalised enrichment score": 0.47}
{"Change": "D11C", "normalised enrichment score": 1.28}
{"Change": "T12A", "normalised enrichment score": 0.271}
{"Change": "T3L", "normalised enrichment score": 0.21}
{"Change": "D11H", "normalised enrichment score": 0.0338}
{"Change": "T12R", "normalised enrichment score": 1.48}
{"Change": "F10N", "normalised enrichment score": -0.0397}
{"Change": "L7W", "normalised enrichment score": 1.04}
{"Change": "F4Y", "normalised enrichment score": 0.648}
{"Change": "K6M", "normalised enrichment score": 0.205}
{"Change": "K2G", "normalised enrichment score": 0.613}
{"Change": "R8C", "normalised enrichment score": 0.837}
{"Change": "F4P", "normalised enrichment score": 0.512}
{"Change": "F10C", "normalised enrichment score": 0.436}
{"Change": "R5C", "normalised enrichment score": -0.146}
{"Change": "K2I", "normalised enrichment score": 0.844}
{"data": "Series 3", "target": "Sal-like protein 4, full length isoform A (SALL4, Homo sapiens, UniProt Q9UJQ4, residues 1-1053)", "technique": "universal PBM", "form": "double-stranded DNA, one strand shown", "medium": "in vitro", "concentration": "600 nM", "notes": "8-mer, flanks averaged, mean of replicates", "reading": "higher = stronger binding", "sequence of UniProt Q9UJQ4 (whole entry, looked up)": "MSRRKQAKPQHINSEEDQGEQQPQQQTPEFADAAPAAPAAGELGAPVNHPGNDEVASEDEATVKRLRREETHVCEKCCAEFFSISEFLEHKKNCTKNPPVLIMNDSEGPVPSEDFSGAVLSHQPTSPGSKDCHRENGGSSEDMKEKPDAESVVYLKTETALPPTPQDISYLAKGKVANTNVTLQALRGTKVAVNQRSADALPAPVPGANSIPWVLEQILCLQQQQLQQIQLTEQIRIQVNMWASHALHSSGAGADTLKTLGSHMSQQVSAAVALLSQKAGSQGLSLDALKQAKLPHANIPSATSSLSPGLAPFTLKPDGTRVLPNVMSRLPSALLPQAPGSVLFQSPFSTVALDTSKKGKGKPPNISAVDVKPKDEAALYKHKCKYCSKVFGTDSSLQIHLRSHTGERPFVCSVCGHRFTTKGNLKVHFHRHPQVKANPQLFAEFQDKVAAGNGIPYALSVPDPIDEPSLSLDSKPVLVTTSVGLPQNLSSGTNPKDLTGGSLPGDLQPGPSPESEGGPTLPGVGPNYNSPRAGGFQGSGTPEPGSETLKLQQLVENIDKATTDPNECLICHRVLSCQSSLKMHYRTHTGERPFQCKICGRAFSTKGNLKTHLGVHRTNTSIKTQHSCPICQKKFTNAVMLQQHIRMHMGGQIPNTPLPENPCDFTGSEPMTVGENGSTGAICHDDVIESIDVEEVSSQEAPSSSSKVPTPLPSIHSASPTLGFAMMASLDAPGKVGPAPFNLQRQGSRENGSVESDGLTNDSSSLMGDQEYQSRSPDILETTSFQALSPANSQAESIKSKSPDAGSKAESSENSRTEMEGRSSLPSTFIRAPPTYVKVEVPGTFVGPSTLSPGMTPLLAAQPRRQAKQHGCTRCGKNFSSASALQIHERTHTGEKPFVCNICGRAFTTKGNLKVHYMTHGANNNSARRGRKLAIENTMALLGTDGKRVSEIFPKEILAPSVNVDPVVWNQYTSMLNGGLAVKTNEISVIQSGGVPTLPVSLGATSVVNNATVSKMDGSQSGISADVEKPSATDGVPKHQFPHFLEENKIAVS"}
{"Strand": "GAGCGAAC", "E-score": -0.165}
{"Strand": "AAGCGGCG", "E-score": -0.305}
{"Strand": "CAGAAGTA", "E-score": 0.264}
{"Strand": "GGCGTTGA", "E-score": -0.171}
{"Strand": "CTTGTACA", "E-score": 0.157}
{"Strand": "GGCCACTA", "E-score": -0.264}
{"Strand": "ACCTGCCG", "E-score": -0.304}
{"Strand": "CATGGTGG", "E-score": -0.243}
{"Strand": "CATGGACG", "E-score": -0.0744}
{"Strand": "GAGCAGGC", "E-score": -0.29}
{"Strand": "AATACCCG", "E-score": 0.00483}
{"Strand": "CCTAGATA", "E-score": 0.0998}
{"Strand": "ATAAACAC", "E-score": 0.193}
{"Strand": "AGCGTAGC", "E-score": -0.0502}
{"Strand": "CCCTATGA", "E-score": 0.0289}
{"Strand": "AGGCAACC", "E-score": -0.128}
{"Strand": "AACAGCGA", "E-score": -0.108}
{"Strand": "ATGTCGGC", "E-score": -0.156}
{"Strand": "AGTAACAA", "E-score": 0.161}
{"Strand": "ACCGATCA", "E-score": 0.0766}
{"Strand": "CGGGGACC", "E-score": -0.355}
{"Strand": "GGCGTATA", "E-score": 0.0183}
{"Strand": "CTGTAAGC", "E-score": -0.0284}
{"Strand": "CCTATAAG", "E-score": 0.0206}
{"Strand": "GCCCACGA", "E-score": -0.284}
{"data": "Series 4", "target": "RNA binding protein fox-1 homolog 2, RRM domain, GST-SBP tag (RBFOX2, Homo sapiens, UniProt O43251-10, residues 100-194)", "technique": "RNA Bind-n-Seq", "form": "RNA", "medium": "in vitro", "concentration": "365 nM", "notes": "natural RNA segment, single round, ends assumed", "relative to": "no-protein control", "reading": "higher = stronger binding", "all sequences stand within": "GGGAGUUCUACAGUCCGACGAUC … UGGAAUUCUCGGGUGCCAA", "Residues (chain)": "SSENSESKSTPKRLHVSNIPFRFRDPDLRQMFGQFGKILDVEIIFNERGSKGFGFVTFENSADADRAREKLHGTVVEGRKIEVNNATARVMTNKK"}
{"Strand": "AAUAAAUUCCCAACUUCUCUUGCUUUCUAUGCUGUUUGUAGUGAAAUAAUAGAAUGAGCACCCAUUCCAAAGCUUUAUUACCAGUGGCGUUGUUGCAUGUUUGAAAUGAG", "RBNS enrichment (R)": 13.9}
{"Strand": "UAUAGUAGGCAAAAAGUACAGAAAUAGAUGCAAUAAGUGUGGUGAGUCUUUGAGCCUACGAGUCAUGCCACCAGCCAUAAGUUGACCUAUCACUUGAGAACCUCCUCAGC", "RBNS enrichment (R)": 0.395}
{"Strand": "GAUGCUGGUUUUUGCCUGAAGGCCCUGCAGCCUGCCCACAUCAGGUUAAACCCACAGCUUUUGUGUGUGGUUUGUUUUGUUGUGUUUUCUUUCUCUAUGUUCCAAAACCA", "RBNS enrichment (R)": 2.18}
{"Strand": "GCCAAGGGCUUGCAUGCAUUAUCUCCUUUAAUCCACAAGCAGCUCUGGCGAGGUGGUAUUAGCCCAUCUUACAGAUGGGAAAACUGAAGUUCUGUGCUAGAGAUUGAGAA", "RBNS enrichment (R)": 18.1}
{"Strand": "UUGUCAACUUAAGCGUCUGUUUACCAAAGACCGGGAACAGGGGCCCAAACAUGUCCAGUCCUCUUCUUCCCUCUGCUGGAACCUUUGGGGACACUCAAGGGUACAGUUUG", "RBNS enrichment (R)": 0.263}
{"Strand": "GCCUGGAAGAUUCAGGAGCCUGGGCGGCCUUCGCUUACUCUCACCUGCUUCUGAGUUGCCCAGGAGACCACUGGCAGAUGUCCCGGCGAAGAGAAGAGACACAUUGUUGG", "RBNS enrichment (R)": 0.386}
{"Strand": "UAACUACUUCUCAUGAACACUACCCAAGGAGGAAGCCUGCACCUGGGAAGUGUGCAGUGUGAGCUCUGCCCUCCUGUUAAGUUCUCCAGCUCUAGACAUGUCUCUUGGUG", "RBNS enrichment (R)": 1.23}
{"Strand": "UGGAAGAAAUAUAUUUGCAUAUUGAAAAGCACAGAGGAUUUCUUUAGUGUCAUUGCCGAUUUUGGCUAUAACAGUGUCUUUCUAGCCAUAAUAAAAUAAAACAAAAUCUU", "RBNS enrichment (R)": 0.785}
{"Strand": "AAAAAAAAAAAAAAACUUCCAUUCUUUCUUCCUCCAGUCUGUUCUCACAUAACAGAGUAGUUUUGGUUUUUAAUUUUUUUUGGUUGUUUGCUGUUUUUUGUUUUUUAAGG", "RBNS enrichment (R)": 1.51}
{"Strand": "GCCCUGCCGCCCCAGCCUGGACGCUCUGCGUGGAAGUGCGUGUUUGUAGCAGCUCGGGCCUCAUCUCAGCGCUCGGAUCCCUCCUGCUGCCAGAAUCCACUGGCCUCUGU", "RBNS enrichment (R)": 0.273}
{"Strand": "CACUUUCUUUUCAAAGAAAUGUUAAUUAUUACAAAAAUUGACAUAGAUAUCUUUCCCAAACUUGGGGUAAAACCCAUGGUUAUGUGGAACAUAACUGUUCUUAAAAAGUC", "RBNS enrichment (R)": 0.337}
{"Strand": "GGCAAAUCCUUCUGCCAUCAGCUGUGUGGGCUUGCCUCUUUGAGCUCAUCUCCCCUCACAGGCUGUCUUCAUGAUGCAGGACCUGGGCACAUGGUCACAUUAUUCCGUUC", "RBNS enrichment (R)": 0.194}
{"data": "Series 5", "Substance": "PhoQ, residues 284 288 289 292 302 303 GNNTDL", "technique": "Sort-seq", "refers to": "YFP reporter", "medium": "E. coli", "notes": "PhoQ-PhoP variant library", "added": "10 µM Mg2+", "relative to": "high Mg2+ state", "reading": "higher = stronger signaling"}
{"target": "PhoP, residues 12 14 15 18 19 AYFRS (Escherichia coli, UniProt P23836)", "fold induction": 1.39}
{"target": "PhoP, residues 12 14 15 18 19 SFCSL (Escherichia coli, UniProt P23836)", "fold induction": 3.08}
{"target": "PhoP, residues 12 14 15 18 19 HHYTI (Escherichia coli, UniProt P23836)", "fold induction": 3.58}
{"data": "Series 6", "target": "ABI1, truncated, D143A, DHFR fusion (Arabidopsis thaliana)", "technique": "DHFR PCA, deep sequencing", "medium": "yeast", "notes": "methotrexate growth selection, single substitutions", "added": "(+)-ABA 1.4 µM", "relative to": "wild-type fitted maximum", "reading": "higher = stronger binding", "starting sequence": "PYL1, truncated, DHFR fusion (Arabidopsis thaliana); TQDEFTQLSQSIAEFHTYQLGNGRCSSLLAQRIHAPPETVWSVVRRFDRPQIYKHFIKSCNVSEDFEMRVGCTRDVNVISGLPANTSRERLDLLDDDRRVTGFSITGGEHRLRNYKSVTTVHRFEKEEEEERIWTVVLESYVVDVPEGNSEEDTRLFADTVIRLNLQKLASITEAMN"}
{"Change": "E38P", "relative binding score [%]": 13.5}
{"Change": "V121C", "relative binding score [%]": 13.8}
{"Change": "L169S", "relative binding score [%]": -3.09}
{"Change": "I133W", "relative binding score [%]": 38.6}
{"Change": "Q51K", "relative binding score [%]": 14}
{"Change": "S140V", "relative binding score [%]": 9.02}
{"Change": "E14K", "relative binding score [%]": 22.1}
{"Change": "I79D", "relative binding score [%]": -10.3}
{"Change": "M176G", "relative binding score [%]": 47.2}
{"Change": "L138G", "relative binding score [%]": -4.45}
{"Change": "L82D", "relative binding score [%]": 1.72}
{"Change": "V118W", "relative binding score [%]": 5.75}
{"Change": "T119E", "relative binding score [%]": -1.58}
{"Change": "L93R", "relative binding score [%]": 38.3}
